Experimental data pooled from the literature.
Every numbered part comes from another study and shows a few of its results, in no order.
Chain of UniProt P07333 (whole entry, looked up): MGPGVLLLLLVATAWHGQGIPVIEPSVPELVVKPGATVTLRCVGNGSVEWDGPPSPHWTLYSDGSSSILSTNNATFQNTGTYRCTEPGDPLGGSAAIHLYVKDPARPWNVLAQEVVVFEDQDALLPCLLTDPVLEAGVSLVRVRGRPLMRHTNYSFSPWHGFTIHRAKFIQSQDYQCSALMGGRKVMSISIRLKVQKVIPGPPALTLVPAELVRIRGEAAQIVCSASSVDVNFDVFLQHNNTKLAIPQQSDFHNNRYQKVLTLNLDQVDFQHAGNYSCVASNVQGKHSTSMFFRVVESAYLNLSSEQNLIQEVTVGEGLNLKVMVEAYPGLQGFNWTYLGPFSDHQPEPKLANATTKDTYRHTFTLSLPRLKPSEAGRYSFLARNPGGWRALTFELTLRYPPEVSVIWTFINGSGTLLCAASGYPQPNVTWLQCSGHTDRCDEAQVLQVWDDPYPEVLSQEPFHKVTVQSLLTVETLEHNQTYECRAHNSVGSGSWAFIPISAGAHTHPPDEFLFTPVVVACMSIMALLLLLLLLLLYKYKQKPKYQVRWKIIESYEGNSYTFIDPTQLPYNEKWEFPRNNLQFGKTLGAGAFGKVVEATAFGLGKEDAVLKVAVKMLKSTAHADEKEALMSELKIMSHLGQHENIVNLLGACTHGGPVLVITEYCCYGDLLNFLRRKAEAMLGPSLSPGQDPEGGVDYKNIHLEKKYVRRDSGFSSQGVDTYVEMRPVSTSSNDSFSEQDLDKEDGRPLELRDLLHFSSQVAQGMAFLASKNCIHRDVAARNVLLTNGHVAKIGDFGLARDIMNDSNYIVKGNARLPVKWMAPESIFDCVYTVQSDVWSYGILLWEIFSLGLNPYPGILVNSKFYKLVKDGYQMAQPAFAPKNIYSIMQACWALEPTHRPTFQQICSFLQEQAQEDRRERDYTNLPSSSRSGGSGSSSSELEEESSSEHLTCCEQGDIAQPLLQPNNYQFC
Chain of UniProt Q96GD4 (whole entry, looked up): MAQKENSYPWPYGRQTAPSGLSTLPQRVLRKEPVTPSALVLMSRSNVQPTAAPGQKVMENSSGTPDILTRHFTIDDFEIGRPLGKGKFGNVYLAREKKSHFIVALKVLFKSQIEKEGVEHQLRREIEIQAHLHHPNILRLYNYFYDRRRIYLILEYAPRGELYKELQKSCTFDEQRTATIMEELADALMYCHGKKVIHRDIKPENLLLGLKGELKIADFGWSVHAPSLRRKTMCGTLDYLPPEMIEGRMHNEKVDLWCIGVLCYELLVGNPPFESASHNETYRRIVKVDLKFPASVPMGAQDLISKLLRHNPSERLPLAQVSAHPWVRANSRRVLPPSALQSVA
Chain of UniProt P35968 (whole entry, looked up): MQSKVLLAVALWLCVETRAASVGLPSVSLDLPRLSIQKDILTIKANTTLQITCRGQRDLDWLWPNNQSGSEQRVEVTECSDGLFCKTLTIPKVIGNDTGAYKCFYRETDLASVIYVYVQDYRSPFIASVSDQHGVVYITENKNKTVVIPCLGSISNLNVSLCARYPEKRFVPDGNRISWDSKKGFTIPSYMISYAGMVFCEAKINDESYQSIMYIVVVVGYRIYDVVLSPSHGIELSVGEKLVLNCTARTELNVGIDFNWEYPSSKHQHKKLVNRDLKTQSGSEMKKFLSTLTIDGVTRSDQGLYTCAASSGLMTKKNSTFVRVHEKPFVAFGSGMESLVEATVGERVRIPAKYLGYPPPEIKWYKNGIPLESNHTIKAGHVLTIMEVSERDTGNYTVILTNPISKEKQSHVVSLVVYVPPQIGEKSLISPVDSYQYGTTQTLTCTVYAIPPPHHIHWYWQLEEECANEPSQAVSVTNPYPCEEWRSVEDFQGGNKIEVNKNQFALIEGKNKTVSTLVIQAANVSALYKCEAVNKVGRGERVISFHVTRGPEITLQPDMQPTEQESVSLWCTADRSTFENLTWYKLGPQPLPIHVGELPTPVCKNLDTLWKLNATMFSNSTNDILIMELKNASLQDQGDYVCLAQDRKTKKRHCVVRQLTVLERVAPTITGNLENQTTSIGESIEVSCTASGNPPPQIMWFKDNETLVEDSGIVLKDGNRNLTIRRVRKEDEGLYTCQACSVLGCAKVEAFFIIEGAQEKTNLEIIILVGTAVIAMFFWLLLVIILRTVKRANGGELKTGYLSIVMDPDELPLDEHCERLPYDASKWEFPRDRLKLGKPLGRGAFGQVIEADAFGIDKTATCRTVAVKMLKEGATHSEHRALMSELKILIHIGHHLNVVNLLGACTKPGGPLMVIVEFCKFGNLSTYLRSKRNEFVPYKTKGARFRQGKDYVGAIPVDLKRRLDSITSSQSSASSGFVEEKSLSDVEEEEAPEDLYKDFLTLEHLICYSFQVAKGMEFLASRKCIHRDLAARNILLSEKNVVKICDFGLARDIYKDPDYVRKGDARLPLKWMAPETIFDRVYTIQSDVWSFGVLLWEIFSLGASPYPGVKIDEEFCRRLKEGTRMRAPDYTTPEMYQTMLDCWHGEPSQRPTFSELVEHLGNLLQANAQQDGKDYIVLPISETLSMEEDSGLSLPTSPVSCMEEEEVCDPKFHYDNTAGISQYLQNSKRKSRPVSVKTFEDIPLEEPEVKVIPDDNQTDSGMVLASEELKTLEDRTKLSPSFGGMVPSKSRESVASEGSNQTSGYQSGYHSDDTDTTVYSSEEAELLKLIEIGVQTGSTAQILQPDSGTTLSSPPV
Chain of UniProt Q8N568 (whole entry, looked up): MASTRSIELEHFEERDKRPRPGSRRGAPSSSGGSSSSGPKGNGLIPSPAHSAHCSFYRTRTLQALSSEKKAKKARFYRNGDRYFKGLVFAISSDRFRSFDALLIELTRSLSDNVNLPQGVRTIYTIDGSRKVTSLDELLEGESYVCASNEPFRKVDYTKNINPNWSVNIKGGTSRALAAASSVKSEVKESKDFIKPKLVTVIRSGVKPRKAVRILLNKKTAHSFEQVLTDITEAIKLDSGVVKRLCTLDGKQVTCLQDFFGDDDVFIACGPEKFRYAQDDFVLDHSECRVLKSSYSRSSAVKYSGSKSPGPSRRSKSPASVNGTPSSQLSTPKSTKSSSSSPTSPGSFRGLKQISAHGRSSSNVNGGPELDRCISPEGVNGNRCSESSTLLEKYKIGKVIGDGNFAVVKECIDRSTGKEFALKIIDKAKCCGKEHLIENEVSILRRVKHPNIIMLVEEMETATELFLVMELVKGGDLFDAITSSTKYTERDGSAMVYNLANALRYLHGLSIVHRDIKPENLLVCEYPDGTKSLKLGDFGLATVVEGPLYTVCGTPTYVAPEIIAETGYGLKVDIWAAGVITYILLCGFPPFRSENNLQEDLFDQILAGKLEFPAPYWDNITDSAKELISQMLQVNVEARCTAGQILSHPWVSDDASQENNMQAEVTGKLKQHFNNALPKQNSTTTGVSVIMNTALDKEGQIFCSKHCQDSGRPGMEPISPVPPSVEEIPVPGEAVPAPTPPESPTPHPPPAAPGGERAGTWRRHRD
Chain of UniProt P78356 (whole entry, looked up): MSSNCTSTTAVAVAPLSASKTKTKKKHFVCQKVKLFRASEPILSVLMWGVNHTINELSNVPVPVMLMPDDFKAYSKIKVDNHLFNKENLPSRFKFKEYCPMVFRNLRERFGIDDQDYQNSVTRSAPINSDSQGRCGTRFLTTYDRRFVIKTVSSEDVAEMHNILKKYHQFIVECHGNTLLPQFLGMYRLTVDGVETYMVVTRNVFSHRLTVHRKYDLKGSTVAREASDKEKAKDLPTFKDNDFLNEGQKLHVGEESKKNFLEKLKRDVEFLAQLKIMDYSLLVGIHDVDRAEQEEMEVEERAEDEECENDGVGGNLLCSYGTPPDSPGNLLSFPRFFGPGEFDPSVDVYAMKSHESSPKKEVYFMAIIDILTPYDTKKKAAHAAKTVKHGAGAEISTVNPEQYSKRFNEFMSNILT

Study 1
SMILES: C[C@H](NC(=O)c1cnc2n1[C@](C)(Cc1ccc(C#N)cc1)C(=O)N2c1cc(Cl)c(F)c(Cl)c1)C(=O)NC1(c2ccccn2)CC1
Read-out: cell-free assay
Technique: competition with immobilised ligand
Tested at: 1 µM
It gave 100% for remaining binding (PIK3C3 (Homo sapiens, UniProt Q8NEB9)).
For FLT3 (Homo sapiens, UniProt P36888, D835V): remaining binding read 100%.
EGFR (Homo sapiens, UniProt P00533, A750P/del747-749) — remaining binding: 100%.
It gave 100% for remaining binding (DCLK2 (Homo sapiens, UniProt Q8N568)).
For Macrophage colony-stimulating factor 1 receptor, autoinhibited (CSF1R, Homo sapiens, UniProt P07333): remaining binding read 100%.
For STK39 (Homo sapiens, UniProt Q9UEW8): remaining binding read 24%.
For PIP4K2B (Homo sapiens, UniProt P78356): remaining binding read 100%.
KDR (Homo sapiens, UniProt P35968) — remaining binding: 99%.
ALK (Homo sapiens, UniProt Q9UM73, C1156Y) — remaining binding: 100%.
WEE2 (Homo sapiens, UniProt P0C1S8) — remaining binding: 100%.
INSRR (Homo sapiens, UniProt P14616) — remaining binding: 100%.
The remaining binding was 100% (LTK (Homo sapiens, UniProt P29376)).
The remaining binding was 100% (Aurora kinase B (AURKB, Homo sapiens, UniProt Q96GD4)).
The remaining binding was 65% (TNNI3K (Homo sapiens, UniProt Q59H18)).

Study 2
Target: Synaptic vesicular amine transporter (SLC18A2, Homo sapiens, UniProt Q05940)
Chain of UniProt Q05940 (whole entry, looked up): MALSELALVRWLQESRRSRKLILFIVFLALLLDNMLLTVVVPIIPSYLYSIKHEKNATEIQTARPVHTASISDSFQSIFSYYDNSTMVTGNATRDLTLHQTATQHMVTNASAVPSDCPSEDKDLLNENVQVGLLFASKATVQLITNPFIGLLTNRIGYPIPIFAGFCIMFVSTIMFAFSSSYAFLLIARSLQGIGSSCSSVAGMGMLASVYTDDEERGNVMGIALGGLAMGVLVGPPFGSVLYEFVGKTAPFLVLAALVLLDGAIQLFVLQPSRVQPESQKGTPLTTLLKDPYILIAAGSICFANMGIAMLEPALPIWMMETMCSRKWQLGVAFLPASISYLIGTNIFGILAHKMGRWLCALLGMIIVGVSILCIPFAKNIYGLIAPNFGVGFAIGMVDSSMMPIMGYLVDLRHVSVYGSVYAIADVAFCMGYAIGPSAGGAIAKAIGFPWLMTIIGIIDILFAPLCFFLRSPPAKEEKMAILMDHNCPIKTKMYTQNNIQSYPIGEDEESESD
Mode: inhibitor
Setting: literature data
For Nc1nc2[nH]cc(CCc3ccc(C(=O)N[C@@H](CCC(=O)O)C(=O)O)cc3)c2c(=O)[nH]1, the IC50 was greater than 10 µM.
CC(CCc1ccc(O)cc1)NCC(O)c1ccc(O)cc1 (stereo not shown) gave an IC50 of 0.247 µM.
With CN(c1nccc(=O)[nH]1)C1CCN(c2nc3ccccc3n2Cc2ccc(F)cc2)CC1 the IC50 was greater than 10 µM.
CN1CC[C@@H](NC(=O)Nc2ccc(C#N)cc2)C[C@@H]1c1nc2ccccc2[nH]1 gave an IC50 of greater than 10 µM.
CCN(CC)CC(=O)Nc1c(C)cccc1C gave an IC50 of greater than 10 µM.
The IC50 of C=CC(=O)N1CCC[C@@H](n2nc(-c3ccc(Oc4ccccc4)cc3)c3c(N)ncnc32)C1 is reported as 5.2 µM.
The IC50 of CC(=O)O[C@H]1C(=O)[C@@]2(C)[C@H]([C@H](OC(=O)c3ccccc3)[C@]3(O)C[C@H](OC(=O)[C@H](O)[C@@H](NC(=O)c4ccccc4)c4ccccc4)C(C)=C1C3(C)C)[C@]1(OC(C)=O)CO[C@@H]1C[C@@H]2O is reported as greater than 10 µM.
CCCN(CCC)CCc1cccc2c1CC(=O)N2 has an IC50 of greater than 10 µM.
Cc1c(Cl)c(C)[n+]([O-])c(Cl)c1-c1noc(-c2cc(O)c(O)c([N+](=O)[O-])c2)n1 has an IC50 of 1.56 µM.
For CC(C)OC(=O)OCOP(=O)(CO[C@H](C)Cn1cnc2c(N)ncnc21)OCOC(=O)OC(C)C, the IC50 was greater than 10 µM.
With Nc1nc2ncc(CNc3ccc(C(=O)N[C@@H](CCC(=O)O)C(=O)O)cc3)nc2c(=O)[nH]1 the IC50 was greater than 10 µM.
With CCCc1nn(C)c2c(=O)[nH]c(-c3cc(S(=O)(=O)N4CCN(C)CC4)ccc3OCC)nc12 the IC50 was 3.96 µM.
With CCN(CC)CCNC(=O)c1cc(Cl)c(N)cc1OC the IC50 was greater than 10 µM.
The IC50 of C[C@H]1C[C@@H]2[C@H]([C@@H](O)C[C@@]3(C)[C@H]2CC[C@]3(O)C(=O)CO)[C@@]2(C)C=CC(=O)C=C12 is reported as greater than 10 µM.

Study 3
Host: mouse
Matrix: microsomes or S9
Tested at: 2 µM
Time: 0.5 h
The remaining compound of O=c1[nH]ncn2c1cc1cc(Br)ccc12 is reported as 42.1%.
Cc1ccc(-c2csc3ncn(-n4cccc4)c(=O)c23)o1 has a remaining compound of 2.83%.
With O=C(CCS(=O)(=O)c1ccccc1)N(Cc1cccnc1)c1nc2ccc(Cl)cc2s1 the remaining compound was 27.6%.
Cc1cccc(-n2ccnc2S(=O)(=O)C(C)C(=O)N(C(C)C)C(C)C)c1 (stereo not shown) has a remaining compound of less than 1%.
Cc1ccc(S(=O)(=O)Nc2c(C)[nH]c(=O)[nH]c2=O)cc1 has a remaining compound of 45.4%.
N#Cc1cccc(Nc2cccc3c2CN(c2cccc(C(=O)O)c2)C3=O)c1 has a remaining compound of 61.4%.
Cc1ccc(-c2nc3[nH]c(CNc4ccc(F)cc4)cc(=O)n3n2)cc1 has a remaining compound of 0.103%.
The remaining compound of COc1cc2c(cc1O)[C@@H]1Cc3ccc(O)c(OC)c3CN1CC2 is reported as 86.5%.
Cc1ccc(C2(c3ccccc3)C=C(c3ccccc3)N(S(=O)(=O)c3ccc(C)cc3)O2)cc1 (stereo not shown) has a remaining compound of 0.85%.
The remaining compound of O=C(O)c1ccc(C2(c3ccc(C(=O)O)cc3)OC(=O)c3ccccc32)cc1 is reported as 89.1%.
O=C(NC1CCCCCC1)N1CCOC2(CCOCC2)C1 gave a remaining compound of 65.3%.
CC(C)C1(C)N=C(c2nn(C)cc2Br)NC1=O (stereo not shown) gave a remaining compound of greater than 99.9%.
With O=C1CCCc2sc(CN3CCOCC3)cc21 the remaining compound was 80.6%.
COc1cc(N2CCN(C(C)=O)CC2)ccc1Nc1ncc(Cl)c(Nc2ccc(N3CCN(S(C)(=O)=O)CC3)cc2OC)n1 has a remaining compound of 0%.
For Oc1cccc(-c2nc3c(s2)Cc2ccccc2-3)c1, the remaining compound was 3.69%.
The remaining compound of COc1ccc(C2N(C(C)=O)c3ccccc3N2S(=O)(=O)c2ccc(C)cc2)cc1 (stereo not shown) is reported as 0%.
The remaining compound of CCOC(=O)Cc1c(-c2nc3ccccc3c(=O)[nH]2)[nH]c2ccccc12 is reported as 25.8%.
For CCOc1cccc(C2c3cccn3-c3sc4c(c3CN2C(=O)Nc2ccc(C)c(F)c2)CCCC4)c1 (stereo not shown), the remaining compound was 7.35%.
Cn1cc(C2c3ccccc3C(=O)N2C2CCCCC2)c2ccccc21 (stereo not shown) has a remaining compound of 7.85%.
For CCC1c2cccn2-c2sc3c(c2CN1C(=O)Nc1ccc(C)cc1C)CCCC3 (stereo not shown), the remaining compound was 1.28%.
Cc1ccc(Cn2c(=O)c3nn(C)cc3n3c(=O)n(Cc4nc(-c5ccccc5)oc4C)nc23)cc1 has a remaining compound of 2.19%.
COc1ccc2ccccc2c1-c1cc(Cn2c(C)c(C)ncc2=O)on1 has a remaining compound of 0.039%.

Study 4
Target: Beta-1 adrenergic receptor (ADRB1, Homo sapiens, UniProt P08588)
Chain of UniProt P08588 (whole entry, looked up): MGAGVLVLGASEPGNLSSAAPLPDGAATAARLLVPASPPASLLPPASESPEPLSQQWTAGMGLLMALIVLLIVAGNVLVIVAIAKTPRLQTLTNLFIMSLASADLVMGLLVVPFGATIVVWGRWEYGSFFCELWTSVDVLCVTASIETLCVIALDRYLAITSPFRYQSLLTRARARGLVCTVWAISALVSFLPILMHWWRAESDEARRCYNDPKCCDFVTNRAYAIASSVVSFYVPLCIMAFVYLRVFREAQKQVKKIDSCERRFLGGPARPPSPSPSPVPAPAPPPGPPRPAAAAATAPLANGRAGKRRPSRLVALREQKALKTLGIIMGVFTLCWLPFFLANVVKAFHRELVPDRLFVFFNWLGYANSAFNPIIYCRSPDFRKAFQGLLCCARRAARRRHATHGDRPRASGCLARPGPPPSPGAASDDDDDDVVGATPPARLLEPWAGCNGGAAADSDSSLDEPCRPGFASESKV
Mode: agonist
For Cc1ccc(OCC(O)CNc2nc(C)nc3c2c(C)nn3C)c(C)c1 (stereo not shown), the EC50 was no less than 100 µM.
CC1(C)CC(=O)c2cc(C(=O)Nc3ccc(F)cc3)c(O)nc2C1 has an EC50 of no less than 100 µM.
O=Cc1cc2ccccc2nc1N1CCOCC1 gave an EC50 of no less than 100 µM.
Cc1cccc(OCc2cc(=O)n3cccc(C)c3n2)c1C gave an EC50 of no less than 100 µM.
For Cc1ccc(/C=C(/C#N)c2nc(-c3cc4c(ccc5ccccc54)oc3=O)cs2)s1, the EC50 was no less than 100 µM.
Cn1c(=O)c2c(nc(N3CCNCC3)n2Cc2ccccc2)n(C)c1=O has an EC50 of no less than 100 µM.
Clc1nc(NCc2cccs2)c2[nH]cnc2n1 has an EC50 of no less than 100 µM.
CC(CNc1nc(C(C)C)nc2c1cnn2C)Oc1cccnc1 (stereo not shown) has an EC50 of no less than 100 µM.
The EC50 of Oc1ccccc1NCC(O)Cn1ccc2ccccc21 (stereo not shown) is reported as no less than 100 µM.
Cc1cc(-c2cc(C)c3ccccc3n2)c(C)o1 has an EC50 of no less than 100 µM.
For c1cc(N[C@@H]2CCNC2)nc(-c2cnc3ccc(-c4cn[nH]c4)cn23)c1, the EC50 was no less than 100 µM.
COc1ccccc1N1CCN(C(=O)c2ccc(C)s2)CC1 has an EC50 of no less than 100 µM.
O=c1cc(-c2ccccn2)oc2c(Nc3cccnc3)nccc12 gave an EC50 of no less than 100 µM.
For Cn1c(COc2ccc(Cl)cc2)nnc1SCc1cc(=O)oc2cc(O)ccc12, the EC50 was no less than 100 µM.

A few entries again (study 3):
Cc1ccc(-c2csc3ncn(-n4cccc4)c(=O)c23)o1 has a remaining compound of 2.83%.
With O=C(CCS(=O)(=O)c1ccccc1)N(Cc1cccnc1)c1nc2ccc(Cl)cc2s1 the remaining compound was 27.6%.
Cc1cccc(-n2ccnc2S(=O)(=O)C(C)C(=O)N(C(C)C)C(C)C)c1 (stereo not shown) has a remaining compound of less than 1%.
Cc1ccc(S(=O)(=O)Nc2c(C)[nH]c(=O)[nH]c2=O)cc1 has a remaining compound of 45.4%.
N#Cc1cccc(Nc2cccc3c2CN(c2cccc(C(=O)O)c2)C3=O)c1 has a remaining compound of 61.4%.
Cc1ccc(-c2nc3[nH]c(CNc4ccc(F)cc4)cc(=O)n3n2)cc1 has a remaining compound of 0.103%.
